Assay results from different studies.
Each line is one published result; not all experiments were run side by side. ± gives the spread as reported.
Technique: steady-state kinetics
B1: aspC A106G/A218G/F210I/I29V/I33V/I68L/I71L/N30D/N64T/S135A/T100S/V136I/V375I (Escherichia coli, UniProt P00509); chain MFENITAAPADPILGLADLFRADERPGKVDLGVGVYKDETGKTPVLTSVKKAEQYLLENETTKTYLGLDGLPEFGRCTQELLFGKGSALINDKRARTAQSPGGTGGLRVAADFLAKNTSVKRVWVSNPSWPNHKAIFNSAGLEVREYAYYDAENHTLDFDALINSLNEAQAGDVVLFHGCCHNPTGIDPTLEQWQTLAQLSVEKGWLPLIDFAYQGFGRGLEEDAEGLRAFAAMHKELIVASSYSKNFGLYNERVGACTLVAADSETVDRAFSQMKAAIRANYSNPPAHGASVVATILSNDALRAIWEQELTDMRQRIQRMRQLFVNTLQEKGANRDFSFIIKQNGMFSFSGLTKEQVLRLREEFGVYAVASGRINVAGMTPDNMAPLCEAIVAVL
B2: enzyme Y27L (Thermoplasma volcanium, UniProt Q978S7); chain MAFHGLVKYSDITVEGLPKIQYHGFIGNNRTAMLVAMNGYIDWGCLPNFNSNAVFSSILDKNKGGYFAIFPSDTTDVYVDQYYKEMTNVLVTEFVKNGKIILRLTDFMPDSEYGKISFPEVHRFVESFSEPIDITIDFKPTFNYGQDKPIIEKDQHGFIFTTDKESIGISSEFPLRKNSDRIFGNVKMEPRSSSWIIALYGIHHLFRTTDYKSYLRLQETTDYWRKWASSSSYAGAYHSMVMRSALALKVLFYEPTGLMVAAPTASLPEAIGGERNWDYRFTWIRDTAYVIEALSSIGYKYEATEFLYDMMDMITRDNRIRTIYSIDDSNDLEERIIDYEGYRGSRPVRIGNKAVDQLQIDQYGSIVRAIHSMAKAGGIVNSYLWDFVEQVMAKIEYLWKYPDSSIWEFRTEPKQYVYSKVMSWAAFDSAISMAKDLGLSAPIKQWKSIQDEIKKEVLEKGFDTDTNSFVQYYGSKNIDAALLRLPILGFIPANDEKFLGTLSRIEKELMVDGYLFKRYREDDGLKGDEGSFLMLTFWYIEDLILMKRLKKAREVLESVLEKANHLGLYSEEIDEKSGDFLGNFPQALSHLGVIRVAPKLEEALLKRTSKINS
B3: PYCR2 R251C (Homo sapiens, UniProt Q96C36); chain MSVGFIGAGQLAYALARGFTAAGILSAHKIIASSPEMNLPTVSALRKMGVNLTRSNKETVKHSDVLFLAVKPHIIPFILDEIGADVQARHIVVSCAAGVTISSVEKKLMAFQPAPKVIRCMTNTPVVVQEGATVYATGTHALVEDGQLLEQLMSSVGFCTEVEEDLIDAVTGLSGSGPAYAFMALDALADGGVKMGLPRRLAIQLGAQALLGAAKMLLDSEQHPCQLKDNVCSPGGATIHALHFLESGGFCSLLINAVEASCIRTRELQSMADQEKISPAALKKTLLDRVKLESPTVSTLTPSSPGKLLTRSLALGGKKD
B4: SCO6712 S292F (Streptomyces coelicolor, UniProt Q9XAL8); chain AKGITARTAPAGGEVRHLKMYAEKLADGQMGYGFEKGKASVPGPLIEVNEGDTLHIEFTNTMDVRASLHVHGLDYEISSDGTAMNKSDVEPGGTRTYTWRTHKPGRRDDGTWRPGSAGYWHYHDHVVGTEHGTGGIRNGLYGPVIVRRKGDVLPDATHTIVFNDMTINNRKPHTGPDFEATVGDRVEIVMITHGEYYHTFHMHGHRWADNRTGILTGPDDPSRVIDNKITGPADSFGFQIIAGEGVGAGAWMYHCHVQFHSDMGMVGLFLVKKPDGTIPGYEPHEHGGATAKSGESGEPTGGAAAHEHEH
B5: enzyme C93G/Y157F (Mus musculus, UniProt P60334); chain MERTELLKPRTLADLIRILHELFAGDEVNVEEVQAVLEAYESNPAEWALYAKFDQYRYTRNLVDQGNGKFNLMILCWGEGHGSSIHDHTDSHGFLKLLQGNLKETLFDWPDKKSNEMIKKSERTLRENQCAYINDSIGLHRVENVSHTEPAVSLHLFSPPFDTCHAFDQRTGHKNKVTMTFHSKFGIRTPFTTSGSLENN
B6: enzyme (Tannerella forsythia, UniProt G8UMQ6); chain PAQPGYTPSADNLKARETFQDDKFGIFIHWGIYSMLADGEWVMHNKNLNWEEYAKLASGFYPAKFNAAEWVAAIKASGAKYITITSRHHDGFSMYATQQSDYNIVDATPFKRDVIHELADECRKQGIRLHLYYSHLDWRRDDYYPLGRTGKGTGRTTQGKWEDYCAFMNNQLTELLTNYGLIGAIWFDGMWDKDIYPDGMTAKTWNLNEQYTLIHRLQPACLIGNNHHITPFAGEDIQIFERDLPGENKAGLSGQDISRLPLETCETMNGMWGYKITDQDYKSTKILIQYLVKAAGKNANLLMNVGPQPNGELPTVAVQRLREMGEWMKIYAPTIQGTRGGVVTPRDWGVTTQKGKTLYVHVLNLDDKALFLPYAGNKLKSAVEYQSRKSVRFIQDRDGILLKFTDKPHSPDYVLELTFANELPLN
B7: efeB (Bacillus subtilis, UniProt P39597); chain IGASGLGGLAPLVQTAAKPSKKDEKEEEQIVPFYGKHQAGITTAHQTYVYFAALDVTAKDKSDIITLFRNWTSLTQMLTSGKKMSAEQRNQYLPPQDTGESADLSPSNLTVTFGFGPGFFEKDGKDRFGLKSKKPKHLAALPAMPNDNLDEKQGGGDICIQVCADDEQVAFHALRNLLNQAVGTCEVRFVNKGFLSGGKNGETPRNLFGFKDGTGNQSTKDDTLMNSIVWIQSGEPDWMTGGTYMAFRKIKMFLEVWDRSSLKDQEDTFGRRKSSGAPFGQKKETDPVKLNQIPSNSHVSLAKSTGKQILRRAFSYTEGLDPKTGYMDAGLLFISFQKNPDNQFIPMLKALSAKDALNEYTQTIGSALYACPGGCKKGEYIAQRLLES
B8: ackA (Escherichia coli, UniProt P0A6A3); chain MSSKLVLVLNCGSSSLKFAIIDAVNGEEYLSGLAECFHLPEARIKWKMDGNKQEAALGAGAAHSEALNFIVNTILAQKPELSAQLTAIGHRIVHGGEKYTSSVVIDESVIQGIKDAASFAPLHNPAHLIGIEEALKSFPQLKDKNVAVFDTAFHQTMPEESYLYALPYNLYKEHGIRRYGAHGTSHFYVTQEAAKMLNKPVEELNIITCHLGNGGSVSAIRNGKCVDTSMGLTPLEGLVMGTRSGDIDPAIIFHLHDTLGMSVDAINKLLTKESGLLGLTEVTSDCRYVEDNYATKEDAKRAMDVYCHRLAKYIGAYTALMDGRLDAVVFTGGIGENAAMVRELSLGKLGVLGFEVDHERNLAARFGKSGFINKEGTRPAVVIPTNEELVIAQDASRLTA
B9: enzyme (Azotobacter vinelandii, UniProt C1DN94); chain MSESPLRLDRLRDFVSALGELLDRHPDEESVLREGRSLLGELVRHDDWLPEEFAQPDPERYQQYLLHADSRQRFSVVSFVWGPGQTTPVHDHRVWGLIGMLRGAEDAQSFELGAEGLRPIGDPVRLSPGQVEAVSPRIGDIHRVFNASPDQPSISIHVYGANIGAVRRAVYLPDGSEKPFISGYSNQFLPNIWDQSKESARP
B10: enzyme C429A (Methanosarcina mazei, UniProt Q8PVB1); chain MSEQRSVPLREHLLALKPCRHGGLIQETSETYGIPENEILDFSANFNPLGSPFDYPENGLNFEDIIKKSCGKLLEYPDNRYVEFREAAARFVGLGVTPQSIVPGNGSTEIVRLVVESVIEKGDKVLLPWPTFGEYEMQCRITGAEPVCPSQEEVNTLPDEVLEEAKILFICNPNNPTGKLRTREELKVLAERCREHKTLLYVDEAFIELSDPSQSVADLPAENNYVFVMRSLTKDFAIPGIRMGFGIAPPAMADILNTARLSWNLGAIANNTGIALLNIEGGIDSPYLKKAREMILKEGETLKAKIDRIRGFEAGEVNVNFILVDVSKFMLNSSELTARLAARGVLVRDCVSFHGLGKNYIRVAVRTEKENDRLIAAIGDVITEWGREQAKNELQHVIEKASEEGIGGRKTCEYYPCHFEGQNCTFCFAPFYPCENEKTGGKWIQSSRGGRVWSCVDCHLVHKKEIAQKILDCLMHEGDTDELVKVAWKEVMEPIL
B11: enzyme S252E (Schizosaccharomyces pombe, UniProt P78804); chain MSTPYEPEFQQAYKEIVGSIESSKLFEVHPELKRVLPIISIPERVLEFRVTWEDDKGNCRVNTGYRVQFNSALGPYKGGLRFHPSVNLSILKFLGFEQIFKNALTGLPMGGGKGGSDFDPKGKSDNEIRRFSQAFMRQLFRYIGPQTDVPAGDIGVTGFVVMHMFGEYKRLRNEYSGVVTGKHMLTGGSNIRPEATGYGVVYYVKHMIEHRTKGAETLKGKRVAISGSGNVAQYAALKCIQEGAIVKSISDEKGVLIAKTAEGLVPEEIHEIMALKEKRASIADSASLCKKHHYIAGARPWTNVGEIDIALPCATQNEVSGEEAAALIKQGCRYVAEGSNMGSSAEAVEVFEKSRASGEGCWLAPGKAANAGGVAVSGLEMAQNAQFSTWTHAEVDAKLAGIMQNIFEQSTDVASKYCDSGSNNIPSLVDGANIAGFLKVATAMQAVGDWW
B12: bjaI (Bradyrhizobium diazoefficiens, UniProt Q89VI2); chain MIHAISAVNRHLYEDVLEQHFRLRHDIFVEERHWETLRRPDGREVDSYDDEDTVYLLALEGRRVVGGHRLYPTTKPSMMSEVFPHLAAVRGCPSDPLIWEWSRYFVVRDRRDGALNLQLMAAVQEFCLDQGIAQVSAIMETWWLPRFHEAGFVVTPLGLPALVENAWTMAATVDIRRQTLDVLHDRIGMPSIVQQDGPRLDAVARANLCGLAAAQRKSA
Sequence of UniProt P00327 (whole entry, looked up): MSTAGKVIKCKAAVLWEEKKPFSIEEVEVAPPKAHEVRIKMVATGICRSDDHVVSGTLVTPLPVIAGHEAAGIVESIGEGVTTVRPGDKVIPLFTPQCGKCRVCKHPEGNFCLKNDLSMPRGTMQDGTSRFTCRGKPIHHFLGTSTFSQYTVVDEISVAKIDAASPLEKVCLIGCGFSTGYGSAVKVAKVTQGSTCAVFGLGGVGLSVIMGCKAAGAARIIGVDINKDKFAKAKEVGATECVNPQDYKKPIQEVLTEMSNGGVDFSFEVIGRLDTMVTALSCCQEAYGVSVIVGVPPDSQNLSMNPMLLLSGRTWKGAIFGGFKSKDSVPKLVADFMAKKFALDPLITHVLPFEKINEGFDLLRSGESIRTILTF

B1
kcat/Km (O=C(O)C(=O)Cc1ccccc1; pH 7.5, 25 °C, with: PLP 20 µM, ammonium acetate 10 mM): 470000 M⁻¹ s⁻¹

B2 (enzyme Y27L)
kcat/Km (OC[C@H]1O[C@H](O[C@H]2O[C@H](CO)[C@@H](O)[C@H](O)[C@H]2O)[C@H](O)[C@@H](O)[C@@H]1O; pH 3.7, 30 °C): 60 M⁻¹ s⁻¹

B3 (PYCR2 R251C)
kcat/Km (NC(=O)C1=CN([C@@H]2O[C@H](COP(=O)(O)OP(=O)(O)OC[C@H]3O[C@@H](n4cnc5c(N)ncnc54)[C@H](OP(=O)(O)O)[C@@H]3O)[C@@H](O)[C@H]2O)C=CC1; pH 7.5, 37 °C, apparent, cofactor varied, with: DL-P5C 5000 µM): 15000 ± 1000 M⁻¹ s⁻¹

B4 (SCO6712 S292F)
kcat/Km (CCn1c(=NN=c2sc3cc(S(=O)(=O)O)ccc3n2CC)sc2cc(S(=O)(=O)O)ccc21; pH 7, 37 °C, NaCl 150 mM, with: O2 cosubstrate): 1000 ± 100 M⁻¹ s⁻¹

enzyme (UniProt A0A097IUE6)
kcat/Km (O=C(O)O; pH 6.5, 25 °C): 9200 M⁻¹ s⁻¹

B5 (enzyme C93G/Y157F)
kcat/Km (N[C@@H](CS)C(=O)O; pH 7.5, 37 °C): 25 M⁻¹ s⁻¹

B6 (enzyme)
kcat/Km (C[C@@H]1O[C@@H](Oc2ccc([N+](=O)[O-])cc2Cl)[C@@H](O)[C@H](O)[C@@H]1O; pH 8.4, 40 °C): 200000 M⁻¹ s⁻¹

enzyme (Equus caballus, UniProt P00327)
kcat/Km (NC(=O)c1ccc[n+]([C@@H]2O[C@H](COP(=O)(O)OP(=O)(O)OC[C@H]3O[C@@H](n4cnc5c(N)ncnc54)[C@H](O)[C@@H]3O)[C@@H](O)[C@H]2O)c1; pH 7, 30 °C, cofactor varied): 800 M⁻¹ s⁻¹

spt R378K (Sphingomonas paucimobilis)
kcat/Km (CCCCCCCCCCCCCCCC(=O)SCCNC(=O)CCNC(=O)[C@H](O)C(C)(C)COP(=O)(O)OP(=O)(O)OC[C@H]1O[C@@H](n2cnc3c(N)ncnc32)[C@H](O)[C@@H]1OP(=O)(O)O; with: PLP): 5000 M⁻¹ s⁻¹

B7 (efeB)
kcat/Km (CN(C)c1ccc(C(=C2C=CC(=[N+](C)C)C=C2)c2ccccc2)cc1; pH 4, 25 °C, apparent): 5800 M⁻¹ s⁻¹

enzyme (UniProt F0RRL2)
kcat/Km (O=P(O)(O)O; pH 5.5, 37 °C, apparent): 28600 M⁻¹ s⁻¹

enzyme (Bacteroides ovatus, UniProt A0AAN3A6N4)
kcat/Km (O=[N+]([O-])c1ccc(O[C@H]2O[C@H](CO)[C@@H](O)[C@H](O)[C@H]2O)cc1; pH 6.6): 276000 M⁻¹ s⁻¹

gdh E198G/N97F (Bacillus subtilis)
kcat/Km (NC(=O)c1ccc[n+]([C@@H]2O[C@H](COP(=O)(O)OP(=O)(O)OC[C@H]3O[C@@H](n4cnc5c(N)ncnc54)[C@H](O)[C@@H]3O)[C@@H](O)[C@H]2O)c1; pH 7, 55 °C): 69300 ± 5170 M⁻¹ s⁻¹

B8 (ackA)
kcat/Km (Nc1ncnc2c1ncn2[C@@H]1O[C@H](COP(=O)(O)OP(=O)(O)OP(=O)(O)O)[C@@H](O)[C@H]1O; pH 7.6, 25 °C, with: acetate): 1.2e+06 ± 100000 M⁻¹ s⁻¹

B9 (enzyme)
kcat/Km (NCCS; pH 8, 25 °C, with: O2): 11 ± 2 M⁻¹ s⁻¹

B10 (enzyme C429A)
kcat/Km (Nc1ncnc2c1ncn2[C@@H]1O[C@H](COP(=O)(O)OP(=O)(O)OP(=O)(O)O)[C@@H](O)[C@H]1O; pH 8.5, 25 °C, apparent, anoxic, with: L-Thr 10 mM): 1530 ± 31 M⁻¹ s⁻¹

B11 (enzyme S252E)
kcat/Km (NC(=O)c1ccc[n+]([C@@H]2O[C@H](COP(=O)(O)OP(=O)(O)OC[C@H]3O[C@@H](n4cnc5c(N)ncnc54)[C@H](O)[C@@H]3O)[C@@H](O)[C@H]2O)c1; pH 7, 30 °C, apparent): 89 ± 9 M⁻¹ s⁻¹

HNL C81L/E79H/G176S/H103V/K236M/N104T/T11G/V106F (Hevea brasiliensis)
kcat/Km (CC(=O)Oc1ccc([N+](=O)[O-])cc1; pH 7.2, 22 °C): 2000 M⁻¹ s⁻¹

B12 (bjaI)
kcat/Km (CC(C)CC(=O)SCCNC(=O)CCNC(=O)[C@H](O)C(C)(C)COP(=O)(O)OP(=O)(O)OC[C@H]1O[C@@H](n2cnc3c(N)ncnc32)[C@H](O)[C@@H]1OP(=O)(O)O; pH 7.3, with: 30 µM DCPIP, 331 µM SAM): 21700 ± 5000 M⁻¹ s⁻¹

A few entries again:
B11 (enzyme S252E)
kcat/Km (NC(=O)c1ccc[n+]([C@@H]2O[C@H](COP(=O)(O)OP(=O)(O)OC[C@H]3O[C@@H](n4cnc5c(N)ncnc54)[C@H](O)[C@@H]3O)[C@@H](O)[C@H]2O)c1; pH 7, 30 °C, apparent): 89 ± 9 M⁻¹ s⁻¹

B9 (enzyme)
kcat/Km (NCCS; pH 8, 25 °C, with: O2): 11 ± 2 M⁻¹ s⁻¹
